Measurements from different studies.
Each numbered part is a random draw from the data of one study; scales do not carry over between parts.

Study 1
Target: RNA binding protein fox-1 homolog 2, RRM domain, GST-SBP tag (RBFOX2, Homo sapiens, UniProt O43251-10, residues 100-194)
Method: RNA Bind-n-Seq
Form: RNA
Matrix: in vitro
Tested at: 365 nM
Notes: natural RNA segment, single round, ends assumed
Relative to: no-protein control
Direction: higher = stronger binding
Residues (chain): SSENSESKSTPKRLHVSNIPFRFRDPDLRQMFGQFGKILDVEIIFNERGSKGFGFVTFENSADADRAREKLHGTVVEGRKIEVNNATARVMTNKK
Under “RBNS enrichment (R)”, `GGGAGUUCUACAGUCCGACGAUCUUUUAAUACUAAACCUUACAGUCAGGAUUUGGAGUUCUUACAUCAUAUAUAAUAUGUAAUAAACCAGGAUGAAUAUUGCAUAUUCAAUAUCUCCAGUUUUAAUAGUGGCAUGGAAUUCUCGGGUGCCAA` is recorded as 1.
Under “RBNS enrichment (R)”, `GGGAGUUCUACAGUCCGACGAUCCCUAUCCCAUACACGGGGCAGGAGGACGCCACAGACUGGACGCUGAGCGGCCCAGCUCUGGGGGGCACGAGGUCACCUCCGAUGCCACUUACCAGCCUUUCUGAUUCUUUUGGAAUUCUCGGGUGCCAA` is recorded as 0.239.
`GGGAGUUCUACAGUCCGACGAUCUAGGAGCCCUUGCUUGGGGUACAGGUUUUAUAAAUCUGAGCCUUCAACAGUACCUCUCUUCUAAUGGGCUUCAGUCCUCCACUGAGGCAGAAUCUCUGCUGUGGGGAGAGUGGAAUUCUCGGGUGCCAA` — result for “RBNS enrichment (R)”: 0.202.
`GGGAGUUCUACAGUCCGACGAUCCAGGGUCCUGCUAUUUCCCAAGCUGGAGUGCAGUGGUGCGAUCAUGGCUCACUGCAGCCUCGAACUCCUGGGCUCAAGCAAUCCUCCUGAGUGAUCCCAUUUCUUAAUCAUGGAAUUCUCGGGUGCCAA` — result for “RBNS enrichment (R)”: 0.245.
For `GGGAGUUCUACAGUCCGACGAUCUGUACAUACAUGGGCUCAGCCCUGGGCCAAAUGUGCCUGAUGGGAACAGACUUGCAGGGCCAUGCAGGCCAGACUUCGUGCCUUAACUGAAGAGUGUGCGUGUGUGUGUGUGGAAUUCUCGGGUGCCAA`, “RBNS enrichment (R)” read 0.364.
`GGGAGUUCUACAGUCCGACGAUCAAUAAAUAUUCCCAUAAUUUAGAAAAGGAUGUCGACUUGCUAAUUUCAGAAAUAAUUAUUCAUUUUUAAAAAGCCCCUUUUAAAGCAUCUACUUGAAGAUUGGUAUAAUUUGGAAUUCUCGGGUGCCAA` — result for “RBNS enrichment (R)”: 1.19.
Under “RBNS enrichment (R)”, `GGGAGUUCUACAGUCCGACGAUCUAUUUUAAGCCUUAUCCAGCAGCCAUAAUUUGAAUAACUCUACGAGACCAGAGAGACUGUAGUUCCCUAUUUUAACCUCAAUUAUGCAUUUGUCCCCCAACCCCACUGAGUGGAAUUCUCGGGUGCCAA` is recorded as 1.28.
`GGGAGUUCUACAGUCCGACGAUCUGUGAUUUCAUAGCGAGUUUUCUGACCAGCUUUUGCGGAGAUUUUGAACAGAACUGCUAUUUCCUCUAAUGAAGAAUUCUGUUUAGCUGUGGGUGUGCCGGGUGGGGUGUUGGAAUUCUCGGGUGCCAA`: “RBNS enrichment (R)” 1.3.

Study 2
Target: Max dimerization protein 1, bHLH-zipper, MAX partner unstated (MXD1, Homo sapiens, UniProt Q05195, residues 56-136)
Method: protein-binding microarray
Form: double-stranded DNA, one strand shown
Matrix: in vitro
Tested at: not given
Notes: k-mer, scored over probes, only values ≥0.25
Direction: higher = stronger binding
Construct (chain): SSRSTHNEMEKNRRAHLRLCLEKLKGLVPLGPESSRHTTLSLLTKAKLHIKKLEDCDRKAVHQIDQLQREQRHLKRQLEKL
For `CATGCGCG`, the E-score was 0.407.
`CACGCCTG` gave an E-score of 0.369.
The E-score of `CCACCCCA` is reported as 0.386.
The E-score of `CACGAAAC` is reported as 0.264.
The E-score of `GGTGGGGA` is reported as 0.296.
For `ATATGGCA`, the E-score was 0.275.
For `CATGCTTA`, the E-score was 0.403.
For `CTCGTGCC`, the E-score was 0.335.
`TGCCCGCA` gave an E-score of 0.254.
With `CGTGGGTC` the E-score was 0.331.
The E-score of `AGCATGCG` is reported as 0.416.
For `ACGTGTAC`, the E-score was 0.34.
`ACGCTACA` has an E-score of 0.265.
For `GCGTGGGA`, the E-score was 0.394.
`AAGGCACG` has an E-score of 0.259.
`CGTGCACC` gave an E-score of 0.373.
`AACATGGT` gave an E-score of 0.306.
For `CCCCCTGC`, the E-score was 0.33.
With `AAGCGTGC` the E-score was 0.372.
For `CGTGCCAC`, the E-score was 0.286.
For `GGGGGCAC`, the E-score was 0.3.
With `ACGTTGCA` the E-score was 0.265.
For `CCGCATGA`, the E-score was 0.321.
`CCCACGCC` has an E-score of 0.381.
The E-score of `AACATGTG` is reported as 0.477.

Study 3
Target: Interferon regulatory factor 7, full length, phosphomimetic (IRF7, Homo sapiens, UniProt Q92985, residues 1-503, S471D/S472D/S475D/S476D/S477D/S483D/S484D/S487D)
Method: protein-binding microarray
Form: double-stranded DNA, one strand shown
Matrix: in vitro
Tested at: 2200 nM top
Notes: 60-bp whole probe
Added: salmon DNA 0.4 mg/ml
Relative to: random background probes
Direction: higher = stronger binding
All sequences stand within: GCCTAGCAC … GTCTTGATTCGCTTGACGCTGCTG
Residues (chain): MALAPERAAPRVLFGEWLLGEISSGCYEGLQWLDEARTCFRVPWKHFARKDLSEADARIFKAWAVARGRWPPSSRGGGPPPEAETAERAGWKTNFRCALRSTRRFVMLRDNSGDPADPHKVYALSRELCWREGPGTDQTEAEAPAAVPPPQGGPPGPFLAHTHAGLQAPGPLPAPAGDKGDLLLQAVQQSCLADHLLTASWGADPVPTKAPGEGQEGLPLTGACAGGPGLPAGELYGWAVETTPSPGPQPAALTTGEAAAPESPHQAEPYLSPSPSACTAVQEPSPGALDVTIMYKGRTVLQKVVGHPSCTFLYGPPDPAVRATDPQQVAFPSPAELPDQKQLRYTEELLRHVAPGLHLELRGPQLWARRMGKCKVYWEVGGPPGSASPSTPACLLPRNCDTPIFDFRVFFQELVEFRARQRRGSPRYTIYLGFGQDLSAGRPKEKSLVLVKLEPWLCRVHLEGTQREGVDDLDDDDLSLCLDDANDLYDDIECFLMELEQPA
`TTAGGTATCGACACCGGGTTAGTGCTA`: “fitted relative affinity” -0.0271 z-score.
For `ATAGATTTCGGGACTGGATTAGTGCTA`, “fitted relative affinity” read 1 z-score.
Under “fitted relative affinity”, `GACGATATCAGTCGCGAGACGTGCTAG` is recorded as 0.0016 z-score.
`TTAGGAGTGCTACTGCTTTAGTGCTAG`: “fitted relative affinity” -0.453 z-score.
Under “fitted relative affinity”, `TTAGGTCTCCTTATCCTTTCGTGCTAG` is recorded as 1.42 z-score.
`GACGCTTTCGACTTTCGGGACGTGCTA` — result for “fitted relative affinity”: 9.72 z-score.
`TTAGAACTTGGGTATCGATTAGTGCTA` — result for “fitted relative affinity”: -0.393 z-score.
Under “fitted relative affinity”, `TTAGGTATCGACTATCGGTTAGTGCTA` is recorded as 0.51 z-score.
`TATAAATTATCTTTAATCCTGTGCTAG`: “fitted relative affinity” -0.158 z-score.
`TTAGGTATCGACACTGGCTTAGTGCTA` — result for “fitted relative affinity”: -0.217 z-score.
`TCATCTGTCATTTTCTCACTGTGCTAG` — result for “fitted relative affinity”: 2.03 z-score.
For `TTAGAACTGGGTATCGATTAGTGCTAG`, “fitted relative affinity” read -0.151 z-score.
Under “fitted relative affinity”, `ACCACTCCAGTTCTGGGAAAGTGCTAG` is recorded as 0.41 z-score.
Under “fitted relative affinity”, `CTAGGTATCGACACTGGGTTAGTGCTA` is recorded as -0.183 z-score.
`GACGAACTGTGGTATCGAGACGTGCTA` — result for “fitted relative affinity”: -0.118 z-score.
Under “fitted relative affinity”, `GGCGATTTCAGTTCCGAGACGTGCTAG` is recorded as 1.57 z-score.
`TACGGACTGCTTCTCCTGACGTGCTAG`: “fitted relative affinity” 0.759 z-score.
For `TCAGGTTTCCAATCAGCACTGTGCTAG`, “fitted relative affinity” read 2.26 z-score.
`TCATTTCTCTTTCATTGCACTGTGCTA`: “fitted relative affinity” 3.78 z-score.

Study 4
Target: Prothrombin, mature alpha-thrombin (F2, Homo sapiens, UniProt P00734)
Method: aptamer microarray, sandwich
Form: DNA with 2'F-ANA
Matrix: in vitro
Tested at: 200 nM
Notes: whole 15-mer aptamer, many near background
Added: Cy3 exosite-II aptamer, 400 nM
Direction: higher = stronger binding
Strand: GGTTGGTGTGGTTGG
`2'F-ANA at 1 5 6 10 13 14 15`: “mean fluorescence intensity” 91.5 a.u.
For `2'F-ANA at 1 2 4 5 6 7 9 12 14`, “mean fluorescence intensity” read 44.6 a.u.
Under “mean fluorescence intensity”, `2'F-ANA at 8 9 10 12 13 14` is recorded as 106 a.u.
Under “mean fluorescence intensity”, `2'F-ANA at 2 4 5 6 9 11 12 14 15` is recorded as 52.5 a.u.
`2'F-ANA at 4 7 8 12 13 14` — result for “mean fluorescence intensity”: 116 a.u.
For `2'F-ANA at 1 3 5 6 9 10 12 13 14 15`, “mean fluorescence intensity” read 48.4 a.u.
`2'F-ANA at 2 4 5 6 8 9 12 13 14` — result for “mean fluorescence intensity”: 50.8 a.u.
`2'F-ANA at 4 5 6 7 8 10 11 13 14` — result for “mean fluorescence intensity”: 45.9 a.u.
`2'F-ANA at 2 10 11 14 15` — result for “mean fluorescence intensity”: 74.5 a.u.
For `2'F-ANA at 1 2 4 5 7 8 10 11 12 13 15`, “mean fluorescence intensity” read 49 a.u.
Under “mean fluorescence intensity”, `2'F-ANA at 2 3 5 6 7 8 11 12 13 14` is recorded as 57 a.u.
`2'F-ANA at 3 4 8 10 11 13 15` — result for “mean fluorescence intensity”: 204 a.u.
Under “mean fluorescence intensity”, `2'F-ANA at 2 4 5 6 7 8 11 12` is recorded as 121 a.u.
`2'F-ANA at 4 5 7 8 10 13 14`: “mean fluorescence intensity” 46.8 a.u.
For `2'F-ANA at 6 8 9 11 13 14 15`, “mean fluorescence intensity” read 145 a.u.
For `2'F-ANA at 1 2 3 5 8 9 10 11 12 13 14 15`, “mean fluorescence intensity” read 59.3 a.u.
`2'F-ANA at 2 3 8 9 11 13 15`: “mean fluorescence intensity” 646 a.u.
`2'F-ANA at 2 5 7 11 12`: “mean fluorescence intensity” 131 a.u.
`2'F-ANA at 1 3 4 7 8 9 11 13` — result for “mean fluorescence intensity”: 149 a.u.
`2'F-ANA at 1 2 6 7 11`: “mean fluorescence intensity” 129 a.u.

A few entries again (study 3):
`TTAGGTATCGACACTGGCTTAGTGCTA` — result for “fitted relative affinity”: -0.217 z-score.
`TCATCTGTCATTTTCTCACTGTGCTAG` — result for “fitted relative affinity”: 2.03 z-score.
For `TTAGAACTGGGTATCGATTAGTGCTAG`, “fitted relative affinity” read -0.151 z-score.
Under “fitted relative affinity”, `ACCACTCCAGTTCTGGGAAAGTGCTAG` is recorded as 0.41 z-score.
Under “fitted relative affinity”, `CTAGGTATCGACACTGGGTTAGTGCTA` is recorded as -0.183 z-score.
